# Literature values that unrelated publications cite.
# ± marks the error that the study gave.
Structure (SMILES),target or system,test,test system,setting,how to read,measurement,value
O=C(NCc1cccc(C(F)(F)F)c1)Nc1cccc2cnccc12,TRPV1,"calcium flux, antagonist",HEK293,together with: capsaicin,,IC50,0.011 µM
COc1ccccc1Oc1cccc(CN2CCC(NC(=O)C(CCN3CCCC3)c3ccccc3)CC2)c1 (stereo not drawn),human CCR8 Y42A mutant (TM1),"IP accumulation, agonist",,,,EC50,0.172 µM
CC1(C)S[C@@H]2[C@H](NC(=O)[C@H](N)c3ccccc3)C(=O)N2[C@H]1C(=O)O,Klebsiella pneumoniae,,clinical isolate RKI-No_93/10,,,MIC,> 16 mg/L
CC1(C)CCC(CN2CCN(c3ccc(C(=O)NS(=O)(=O)c4ccc(NCC5CCOCC5)c([N+](=O)[O-])c4)c(Oc4cnc5[nH]ccc5c4)c3)CC2)=C(c2ccc(Cl)cc2)C1,,,"human, previously untreated elderly AML","dose not given, sample C patients, together with: azacitidine or decitabine",,remission rate,61%
O=C(NCc1cccc(C(F)(F)F)c1)Nc1cccc2ccc(O)cc12,TRPV1,"calcium flux, antagonist",HEK293,together with: capsaicin,,IC50,0.026 µM
COC[C@@H](c1ccc(C(F)(F)F)cc1)N1CCN(C2(C)CCN(C(=O)c3c(C)ncnc3C)CC2)C[C@@H]1C,,,treatment-naive HIV patients,"10 mg twice daily, day 14, monotherapy without ritonavir",,HIV RNA reduction,1.08 log copies/mL
Nc1cccc2c1C(=O)N(C1CCC(=O)NC1=O)C2=O (stereo not drawn),,,relapsed refractory multiple myeloma patients,"dose not given, independent adjudication",,partial response or better rate,9%
CS(=O)(=O)c1ccc(Nc2ncnc3sc(Nc4c(Cl)cccc4Cl)nc23)cc1,TRPV1,"calcium flux, antagonist",HEK293,together with: capsaicin,,IC50,0.005 µM
CCCCC(CC)C(=O)O (stereo not drawn),CALUX reporter cell lines,reporter gene,,"cell-total, maximum across",,EC10,70 µM
Nc1cc(C(F)(F)F)c(-c2nc(N3CCOCC3)nc(N3CCOCC3)n2)cn1,OVCAR-3,,,,,GI50,0.229 µM
Cc1cnc(N2CC3(CCOCC3)C2)c(C(=O)Nc2ccc(C(=O)N3CCc4cc(C(=O)Nc5c(C)cccc5F)sc4-c4ccccc43)cc2)c1,respiratory syncytial virus,"viral replication, plaque reduction","mouse, lung homogenate",,,ID50,0.021 mg/kg
CNC(C)C1CCC(N)C(OC2C(N)CC(N)C(OC3OCC(C)(O)C(NC)C3O)C2O)O1 (stereo not drawn),Pseudomonas aeruginosa,,clinical isolate RKI-No_48/09,,,MIC,> 8 mg/L
Cc1c(C#N)cccc1[C@@H](C)Nc1nnc(C)c2cnc(N3CCOCC3)cc12,DLD-1,3D cell viability,,14 d,,IC50,0.197 ± 0.156 µM
CCNS(=O)(=O)c1ccc(OC)cc1C1(O)CCN(Cc2cccc(Oc3ccccc3OC)c2)CC1,human CCR8 Y114A mutant (TM3),"IP accumulation, agonist",,,,EC50,0.191 µM
COCCOc1nc(C(F)(F)F)ccc1CNC(=O)Nc1cccc2[nH]ncc12,TRPV1,"calcium flux, antagonist",HEK293,together with: capsaicin,,IC50,0.018 µM
COc1cc(NC(=O)CCN2CCC(OC(=O)Nc3ccccc3-c3ccccc3)CC2)c(Cl)cc1CNC[C@H](O)c1ccc(O)c2[nH]c(=O)ccc12,,,COPD patients,"inhaled, 800 µg once daily, 24 h postdose, dosing day 1",reference: baseline,placebo-corrected trough FEV1 change,173 mL
FC(F)(F)c1ccc(Nc2ncnc3sc(Nc4c(Cl)cccc4Cl)nc23)cn1,TRPV1,"calcium flux, antagonist",HEK293,together with: capsaicin,,IC50,0.014 µM
COc1ccccc1Oc1cccc(CN2CCC3(CC2)C(=O)NCN3CCc2ccccc2)c1,human CCR8 S110A mutant (TM3),"IP accumulation, agonist",,,,EC50,0.0015 µM
FC(F)(F)c1ccc(Nc2ncnc3sc(Nc4c(Cl)cccc4Cl)nc23)cc1,TRPV1,"calcium flux, antagonist",HEK293,together with: capsaicin,,IC50,0.012 µM
C[C@H]1COCCN1c1nc(-c2cnc(N)cc2C(F)F)nc(N2CCOCC2)n1,RT-4,,,,,GI50,0.352 µM
O=C(Nc1cc(C(F)(F)F)cc(C(F)(F)F)c1)Nc1cccc2cnccc12,TRPV1,"calcium flux, antagonist",HEK293,together with: capsaicin,,IC50,0.032 µM
COc1ccccc1Oc1cccc(CN2CCC(O)(c3ccccc3C(=O)O)CC2)c1,human CCR8 Y42A mutant (TM1),"IP accumulation, agonist",,,,EC50,0.131 µM
FC(F)(F)c1ccc(Nc2ncnc3sc(Nc4c(Cl)cccc4Cl)nc23)cc1Cl,TRPV1,"calcium flux, antagonist",HEK293,together with: capsaicin,,IC50,0.021 µM
COc1ccccc1Oc1cccc(CN2CCC(NC(=O)C3CC(=O)Nc4ccccc43)CC2)c1 (stereo not drawn),human CCR8 H283A mutant (TM7),"IP accumulation, agonist",,,,EC50,0.046 µM

# Some of these lines once more:
Structure (SMILES),target or system,test,test system,setting,how to read,measurement,value
COC[C@@H](c1ccc(C(F)(F)F)cc1)N1CCN(C2(C)CCN(C(=O)c3c(C)ncnc3C)CC2)C[C@@H]1C,,,treatment-naive HIV patients,"10 mg twice daily, day 14, monotherapy without ritonavir",,HIV RNA reduction,1.08 log copies/mL
Nc1cccc2c1C(=O)N(C1CCC(=O)NC1=O)C2=O (stereo not drawn),,,relapsed refractory multiple myeloma patients,"dose not given, independent adjudication",,partial response or better rate,9%
